Experimental data gathered from unrelated publications.
Compare with care: the assays were run in different laboratories. ± gives the spread as reported.
UniProt O42275, sequence (whole entry, looked up): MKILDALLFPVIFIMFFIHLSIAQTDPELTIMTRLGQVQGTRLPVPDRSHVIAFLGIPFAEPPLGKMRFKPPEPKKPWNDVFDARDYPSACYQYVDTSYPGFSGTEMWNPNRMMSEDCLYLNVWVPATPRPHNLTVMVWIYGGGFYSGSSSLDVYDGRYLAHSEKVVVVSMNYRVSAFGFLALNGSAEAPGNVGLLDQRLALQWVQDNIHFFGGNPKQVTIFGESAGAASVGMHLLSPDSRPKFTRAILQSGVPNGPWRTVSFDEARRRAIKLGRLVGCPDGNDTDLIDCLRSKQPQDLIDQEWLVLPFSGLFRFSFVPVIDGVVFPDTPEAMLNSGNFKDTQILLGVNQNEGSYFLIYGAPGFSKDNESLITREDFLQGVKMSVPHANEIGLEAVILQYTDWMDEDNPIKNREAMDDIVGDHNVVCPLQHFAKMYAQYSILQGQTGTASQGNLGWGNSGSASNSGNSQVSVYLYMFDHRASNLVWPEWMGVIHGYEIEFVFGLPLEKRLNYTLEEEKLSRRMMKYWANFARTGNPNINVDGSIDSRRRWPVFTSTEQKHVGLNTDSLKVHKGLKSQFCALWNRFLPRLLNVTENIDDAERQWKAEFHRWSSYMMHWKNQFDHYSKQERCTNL
UniProt P25123, sequence (whole entry, unmodified, looked up): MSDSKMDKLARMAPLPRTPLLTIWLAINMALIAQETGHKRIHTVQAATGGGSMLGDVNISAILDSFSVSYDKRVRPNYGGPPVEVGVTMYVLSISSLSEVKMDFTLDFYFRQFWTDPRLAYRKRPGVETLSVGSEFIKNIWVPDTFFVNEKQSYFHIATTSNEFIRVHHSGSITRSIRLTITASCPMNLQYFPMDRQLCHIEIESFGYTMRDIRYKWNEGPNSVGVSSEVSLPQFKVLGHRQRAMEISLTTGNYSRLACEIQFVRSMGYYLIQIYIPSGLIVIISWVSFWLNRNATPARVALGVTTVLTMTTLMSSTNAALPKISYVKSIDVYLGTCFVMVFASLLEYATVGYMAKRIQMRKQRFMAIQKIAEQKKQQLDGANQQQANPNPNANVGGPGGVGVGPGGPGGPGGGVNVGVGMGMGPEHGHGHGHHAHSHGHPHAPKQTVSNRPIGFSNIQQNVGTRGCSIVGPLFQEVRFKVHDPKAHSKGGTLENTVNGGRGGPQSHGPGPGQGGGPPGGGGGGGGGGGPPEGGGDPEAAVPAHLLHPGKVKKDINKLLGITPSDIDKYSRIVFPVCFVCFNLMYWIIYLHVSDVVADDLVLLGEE
UniProt P21554, sequence (whole entry, unmodified, looked up): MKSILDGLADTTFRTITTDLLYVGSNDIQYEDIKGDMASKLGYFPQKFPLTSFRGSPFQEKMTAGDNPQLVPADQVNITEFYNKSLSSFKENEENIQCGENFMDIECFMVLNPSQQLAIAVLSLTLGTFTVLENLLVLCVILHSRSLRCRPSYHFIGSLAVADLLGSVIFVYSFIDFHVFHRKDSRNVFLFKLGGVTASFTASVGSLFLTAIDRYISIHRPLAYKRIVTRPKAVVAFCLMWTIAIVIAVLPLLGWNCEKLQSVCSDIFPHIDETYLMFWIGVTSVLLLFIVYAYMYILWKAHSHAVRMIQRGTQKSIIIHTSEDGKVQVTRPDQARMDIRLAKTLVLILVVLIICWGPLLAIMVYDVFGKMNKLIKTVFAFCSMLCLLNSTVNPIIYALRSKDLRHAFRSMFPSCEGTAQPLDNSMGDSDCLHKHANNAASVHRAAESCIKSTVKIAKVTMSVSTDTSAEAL
UniProt P9WGR1, sequence (whole entry, looked up): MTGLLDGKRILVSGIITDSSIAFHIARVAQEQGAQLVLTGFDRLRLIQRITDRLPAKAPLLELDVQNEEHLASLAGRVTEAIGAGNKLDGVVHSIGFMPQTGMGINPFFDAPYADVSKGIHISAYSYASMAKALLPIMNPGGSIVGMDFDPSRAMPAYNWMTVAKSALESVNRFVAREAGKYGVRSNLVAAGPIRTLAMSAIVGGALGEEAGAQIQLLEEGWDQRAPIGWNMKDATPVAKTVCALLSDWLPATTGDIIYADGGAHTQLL
UniProt Q8NER1, sequence (whole entry, unmodified, looked up): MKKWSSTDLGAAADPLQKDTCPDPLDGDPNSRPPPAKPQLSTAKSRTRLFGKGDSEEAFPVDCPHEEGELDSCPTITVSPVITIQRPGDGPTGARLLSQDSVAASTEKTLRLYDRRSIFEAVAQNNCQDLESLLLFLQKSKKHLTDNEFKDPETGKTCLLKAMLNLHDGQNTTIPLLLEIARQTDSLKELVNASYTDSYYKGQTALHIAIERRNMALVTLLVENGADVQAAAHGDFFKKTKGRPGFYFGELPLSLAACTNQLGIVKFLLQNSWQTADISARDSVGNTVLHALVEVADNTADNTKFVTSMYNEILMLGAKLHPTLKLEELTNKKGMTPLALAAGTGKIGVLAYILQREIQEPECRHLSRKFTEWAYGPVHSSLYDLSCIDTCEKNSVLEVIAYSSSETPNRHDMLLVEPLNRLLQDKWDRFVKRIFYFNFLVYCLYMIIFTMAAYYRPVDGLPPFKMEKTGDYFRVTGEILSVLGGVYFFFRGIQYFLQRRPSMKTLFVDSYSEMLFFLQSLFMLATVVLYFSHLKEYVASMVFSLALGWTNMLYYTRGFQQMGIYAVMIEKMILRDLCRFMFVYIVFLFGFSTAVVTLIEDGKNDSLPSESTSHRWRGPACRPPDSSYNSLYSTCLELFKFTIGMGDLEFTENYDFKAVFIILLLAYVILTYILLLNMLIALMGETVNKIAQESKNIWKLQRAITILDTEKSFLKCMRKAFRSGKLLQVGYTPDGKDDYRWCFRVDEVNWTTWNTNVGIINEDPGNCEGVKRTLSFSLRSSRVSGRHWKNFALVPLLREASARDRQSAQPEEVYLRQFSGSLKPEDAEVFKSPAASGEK
UniProt P34972, sequence (whole entry, looked up): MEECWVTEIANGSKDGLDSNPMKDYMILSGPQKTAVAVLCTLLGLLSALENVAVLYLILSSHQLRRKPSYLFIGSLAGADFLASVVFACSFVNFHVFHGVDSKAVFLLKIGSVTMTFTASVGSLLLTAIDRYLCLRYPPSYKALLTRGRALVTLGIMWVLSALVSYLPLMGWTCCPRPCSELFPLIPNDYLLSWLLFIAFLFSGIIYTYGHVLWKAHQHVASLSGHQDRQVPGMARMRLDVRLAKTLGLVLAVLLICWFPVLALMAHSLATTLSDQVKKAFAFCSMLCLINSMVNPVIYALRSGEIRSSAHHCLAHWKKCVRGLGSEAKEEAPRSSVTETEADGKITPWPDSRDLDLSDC
UniProt A0R016, sequence (whole entry, looked up): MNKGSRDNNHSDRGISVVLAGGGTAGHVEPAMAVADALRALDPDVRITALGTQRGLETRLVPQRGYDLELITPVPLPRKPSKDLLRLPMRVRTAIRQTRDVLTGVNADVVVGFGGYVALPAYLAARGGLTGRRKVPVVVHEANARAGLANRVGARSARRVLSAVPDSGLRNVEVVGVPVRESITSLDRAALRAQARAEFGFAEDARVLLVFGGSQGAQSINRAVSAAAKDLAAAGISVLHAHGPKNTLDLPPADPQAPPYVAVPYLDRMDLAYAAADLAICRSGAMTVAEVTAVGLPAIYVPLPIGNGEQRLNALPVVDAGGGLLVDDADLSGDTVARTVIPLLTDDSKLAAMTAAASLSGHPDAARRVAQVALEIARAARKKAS

With O=C(N=P12CN3CN(CN(C3)C1)C2)c1ccccn1.[Cl][Pd][Cl] the affinity ratio was about 40 (Albumin (ALB, Homo sapiens, UniProt P02768); binding, isothermal titration calorimetry; reference: K1 over K2).
CCCCCCc1ccc(Oc2ccccc2Br)c(O)c1 has a residence time of 9 ± 1 min (Enoyl-[acyl-carrier-protein] reductase [NADH] (inhA, Mycobacterium tuberculosis, UniProt P9WGR1); inhibitor, progress curve global fit; 20 °C).
Under Ki, CCOC(=O)C1C(OC(c2ccc(Cl)cc2)c2ccc(Cl)cc2)CC2CCC1N2C (single isomer, unassigned) is recorded as “inactive” (rat L-type calcium channel; binding, radioligand displacement; rat cortex; dihydropyridine site, inactive if below 75% at 10000 nM, added: [3H]nitrendipine).
With CC[C@H](C)[C@H](NC(=O)CN)C(=O)N[C@@H](CC(C)C)C(=O)N[C@@H](CCCCN)C(=O)N[C@@H](Cc1ccccc1)C(=O)N[C@@H](CC(C)C)C(=O)N[C@@H](CCC(=O)O)C(=O)N[C@@H](CO)C(=O)N[C@@H](C)C(=O)N[C@@H](CCCCN)C(=O)N[C@@H](CCCCN)C(=O)N[C@@H](Cc1c[nH]c2ccccc12)C(=O)N[C@@H](CC(C)C)C(=O)N[C@@H](CCC(=O)O)C(=O)N[C@@H](C)C(=O)N[C@@H](Cc1ccccc1)C(=O)N[C@@H](CC(C)C)C(=O)N[C@@H](C)C(=O)N[C@@H](CCC(=O)O)C(=O)N[C@H](C(=O)N[C@@H](CCSC)C(=O)N[C@@H](CC(N)=O)C(=O)N[C@@H](CO)C(=O)O)[C@@H](C)CC the koff was 13 s⁻¹ (membrane binding, stopped-flow FRET; POPC vesicles; pH 7.5, room temperature).
With CC(=O)N[C@H]1[C@@H](OP(=O)(O)OP(=O)(O)OC/C=C(/C)CC/C=C(/C)CC/C=C(/C)CC/C=C(/C)CC/C=C(/C)CC/C=C(/C)CC/C=C(/C)CC/C=C(/C)CC/C=C(\C)CC/C=C(\C)CCC=C(C)C)O[C@H](CO)[C@@H](O)[C@@H]1O[C@H](C)C(=O)N[C@@H](C)C(=O)N[C@H](CCC(=O)N[C@@H](CCCCNC(=O)OCCCCCCNC(=S)Nc1ccc(NS(=O)(=O)c2cccc3c(N(C)C)cccc23)cc1)C(=O)N[C@H](C)C(=O)N[C@H](C)C(=O)O)C(=O)O the Km was 39 ± 3 µM (UDP-N-acetylglucosamine--N-acetylmuramyl-(pentapeptide) pyrophosphoryl-undecaprenol N-acetylglucosamine transferase (murG, Mycolicibacterium smegmatis, UniProt A0R016); substrate; added: UDP-GlcNAc 187.5 µM).
With CCCCCn1cc(C(=O)c2ccc3ccccc3c2)c2ccccc21 the Emax decrease was about 40% (Cannabinoid receptor 1 (CNR1, Homo sapiens, UniProt P21554, I267L); Gαi1 engagement, agonist, BRET; reference: wild type).
C=C(C)C1C2OC(=O)C1C1(O)CC3OC34C(=O)OC2C14C (centres unmarked) gave a Hill coefficient of 1.32 ± 0.23 (Rdl (Drosophila melanogaster, UniProt P25123, A301V); GABA-induced current, antagonist; added: GABA at EC50).
COc1ccc([C@@H]2N=NC(NCCc3c[nH]c4ccc(C)cc34)=NC2=O)cc1 gave a propidium displacement of 100% (Acetylcholinesterase (ache, Electrophorus electricus, UniProt O42275); peripheral site binding; 3 µM).
The koff of CC(C)C[C@H](NC(=O)CN)C(=O)NCC(=O)N[C@@H](CCCCN)C(=O)N[C@@H](CC(C)C)C(=O)N[C@@H](CC(C)C)C(=O)N[C@@H](Cc1c[nH]cn1)C(=O)N[C@@H](C)C(=O)N[C@@H](C)C(=O)N[C@@H](CCCCN)C(=O)N[C@@H](CCCCN)C(=O)N[C@@H](CC(C)C)C(=O)NCC(=O)N[C@@H](CCCCN)C(=O)N[C@@H](C)C(=O)N[C@@H](Cc1c[nH]c2ccccc12)C(=O)N[C@@H](CC(C)C)C(=O)NCC(=O)N[C@@H](CCC(=O)O)C(=O)N[C@@H](CC(C)C)C(=O)N[C@@H](CC(C)C)C(=O)N[C@@H](C)C(=O)N[C@@H](C)C(=O)O is reported as 24 s⁻¹ (membrane binding, stopped-flow FRET; POPC vesicles; room temperature, extrapolated from POPC/POPG).
CC[C@H](C)[C@H](N)C(=O)N[C@H](C(=O)NCC(=O)N[C@H](C(=O)N[C@H](C(=O)N[C@@H](CC(=O)O)C(=O)N[C@@H](CO)C(=O)N[C@@H](CC(C)C)C(=O)N[C@H](C(=O)N[C@@H](CCCCN)C(=O)N[C@@H](Cc1c[nH]c2ccccc12)C(=O)N[C@H](C(=O)N[C@H](C(=O)N[C@@H](CC(=O)O)C(=O)N[C@H](C(=O)N[C@H](C(=O)N[C@@H](CC(N)=O)C(=O)N[C@@H](CCCCN)C(=O)N[C@@H](Cc1ccccc1)C(=O)N[C@H](C(=O)N[C@@H](CCCCN)C(=O)N[C@@H](CCCCN)C(=O)O)[C@@H](C)O)C(C)C)[C@@H](C)O)[C@@H](C)CC)[C@@H](C)CC)C(C)C)[C@@H](C)CC)[C@@H](C)O)[C@@H](C)CC has a koff of 0.17 s^–1 (lipid vesicle dissociation; POPC vesicles; pH 7.5).
C[C@H](NC(=O)[C@@H]1CCCN1C(=O)[C@H](Cc1ccc(O)cc1)NC(=O)CNC(=O)[C@H](CO)NC(=O)[C@H](Cc1ccccc1)NC(=O)[C@@H](N)[C@@H](C)O)C(=O)N[C@@H](Cc1ccccc1)C(=O)O has an Emax of 86% (agonist; Wistar rat hippocampus membranes; 0.6 µM, 1 h, 30 °C; reference: baseline).
CC[C@H](C)[C@H](N)C(=O)N[C@H](C(=O)N[C@@H](CO)C(=O)N[C@H](C(=O)N[C@H](C(=O)NCC(=O)N[C@@H](CC(=O)O)C(=O)N[C@@H](CC(C)C)C(=O)N[C@H](C(=O)N[C@@H](CCCCN)C(=O)N[C@@H](Cc1c[nH]c2ccccc12)C(=O)N[C@H](C(=O)N[C@H](C(=O)N[C@@H](CC(=O)O)C(=O)N[C@H](C(=O)N[C@H](C(=O)N[C@@H](CC(N)=O)C(=O)N[C@@H](CCCCN)C(=O)N[C@@H](Cc1ccccc1)C(=O)N[C@H](C(=O)N[C@@H](CCCCN)C(=O)N[C@@H](CCCCN)C(=O)O)[C@@H](C)O)C(C)C)[C@@H](C)O)[C@@H](C)CC)[C@@H](C)CC)C(C)C)[C@@H](C)CC)[C@@H](C)O)[C@@H](C)CC gave a koff of 0.033 s^–1 (lipid vesicle dissociation; POPC vesicles; pH 7.5).
CC(C)C[C@H](NC(=O)[C@H](Cc1ccccc1)NC(=O)CNC(=O)CNC(=O)[C@@H](N)Cc1ccc(O)cc1)C(=O)O gave a reversal potential of -110 ± 1.9 mV (K+ current, agonist, photo-uncaging; rat locus coeruleus neurons; large somatic currents).
CC[C@H](C)[C@H](NC(=O)[C@H](CC(N)=O)NC(=O)[C@H](CCCCN)NC(=O)[C@@H](NC(=O)[C@@H](N)CC(C)C)[C@@H](C)CC)C(=O)NCC(=O)N[C@H](C(=O)N[C@H](C(=O)N[C@H](C(=O)N[C@@H](CO)C(=O)N[C@@H](CCCCN)C(=O)N[C@H](C(=O)N[C@H](C(=O)N[C@@H](CCCCN)C(=O)N[C@H](C(=O)N[C@H](C(=O)N[C@@H](Cc1c[nH]c2ccccc12)C(=O)N[C@@H](CCCCN)C(=O)N[C@@H](Cc1ccccc1)C(=O)N[C@H](C(=O)N[C@@H](CC(=O)O)C(=O)N[C@@H](CC(=O)O)C(=O)O)[C@@H](C)O)C(C)C)[C@@H](C)O)[C@@H](C)CC)[C@@H](C)CC)C(C)C)[C@@H](C)CC)[C@@H](C)O has a koff of 6.1 s^–1 (lipid vesicle dissociation; POPC vesicles; pH 7.5).
For CC(C)c1nc2cc(O)ccc2c(=O)n1-c1ccc(C#N)cc1, the potency shift was 4.5 fold (Transient receptor potential cation channel subfamily V member 1 (TRPV1, Homo sapiens, UniProt Q8NER1, E570Q); calcium influx, FLIPR; reference: mutant over wild type).
COC(=O)c1ccc2c(C=C3C(=O)C4CCN3CC4)cn(Cc3ccccc3)c2c1 gave an Emax of 200 ± 8.6% (Cannabinoid receptor 2 (CNR2, Homo sapiens, UniProt P34972); cAMP level increase; CHO expressing human CB2; added: forskolin).
The kon of CC[C@H](C)[C@H](N)C(=O)N[C@H](C(=O)N[C@@H](CCCCN)C(=O)N[C@H](C(=O)N[C@H](C(=O)NCC(=O)N[C@@H](CC(=O)O)C(=O)N[C@@H](CC(C)C)C(=O)N[C@H](C(=O)N[C@@H](CCCCN)C(=O)N[C@@H](Cc1c[nH]c2ccccc12)C(=O)N[C@H](C(=O)N[C@H](C(=O)N[C@@H](CC(=O)O)C(=O)N[C@H](C(=O)N[C@H](C(=O)N[C@@H](CC(N)=O)C(=O)N[C@@H](CO)C(=O)N[C@@H](Cc1ccccc1)C(=O)N[C@H](C(=O)N[C@@H](CCCCN)C(=O)N[C@@H](CCCCN)C(=O)O)[C@@H](C)O)C(C)C)[C@@H](C)O)[C@@H](C)CC)[C@@H](C)CC)C(C)C)[C@@H](C)CC)[C@@H](C)O)[C@@H](C)CC is reported as 14000 M^–1 s^–1 (lipid vesicle binding, stopped-flow FRET; POPC vesicles; pH 7.5).

A few entries again:
With CCCCCn1cc(C(=O)c2ccc3ccccc3c2)c2ccccc21 the Emax decrease was about 40% (Cannabinoid receptor 1 (CNR1, Homo sapiens, UniProt P21554, I267L); Gαi1 engagement, agonist, BRET; reference: wild type).
